Assay results from different studies.
Protocols differ between the studies behind these lines.

Structure (SMILES) | test system | setting | half-life
O=C(COc1ccc(Cl)cc1)NC12CC(c3nnc([C@H]4C[C@@H](OC(F)(F)F)C4)o3)(C1)C2 | healthy human volunteers fasted, plasma | oral, 100 mg single dose, geometric mean | 37.8 h
O=C(O)CCC(=O)O.[2H]C([2H])([2H])Oc1cc(C)c2[nH]ccc2c1CN1CC[C@@H](C2CC2)C[C@H]1c1ccc(C(=O)O)cc1 | human, plasma | 200 mg once daily, day 10, multiple ascending dose, mean | 24.9 h
CC1(COc2ccc3c(c2)ncn3-c2ccc3cccc(N4CCC(N)CC4)c3n2)COC1 | human patients, recurrent/progressive HGG or DIPG, serum | oral, 100 mg/m^2, day 1, median | 9.7 h
C=CC(=O)N(C)CCOc1c(N)ncnc1-c1cc(F)cc(NC(=O)c2ccc(C3CC3)cc2F)c1C | human, whole blood | oral, 15 mg, single ascending dose, median | 0.56 h
C[C@H](Oc1ccc(Br)cc1-c1ccon1)C(=O)O | healthy male humans, plasma | oral, 400 mg twice daily, day 10 | 5.1 h
CC(C)(Sc1ccncc1-c1ccc(C#N)c2ccccc12)C(=O)O | human, plasma | oral, 2.5 mg once daily, geometric mean, together with: febuxostat 0 mg | 15.9 h
CO[C@H]1C[C@@H]2CC[C@@H](C)[C@@](O)(O2)C(=O)C(=O)N2CCCC[C@H]2C(=O)O[C@H]([C@H](C)C[C@@H]2CC[C@@H](OC(=O)NCCOCCOCCOCCOCCOCCOCCOCCOCCC(=O)N3CCc4cc(Cn5nc(-c6ccc7oc(N)nc7c6)c6c(N)ncnc65)ccc4C3)[C@H](OC)C2)C[C@@H](O)[C@H](C)/C=C(\C)[C@@H](O)[C@@H](OC)C(=O)[C@H](C)C[C@H](C)/C=C/C=C/C=C/1C | human patients, plasma | intravenous, 10 mg, cycle 1 day 1, weekly dosing, 1 h infusion, arithmetic mean | 5.9 h
Cc1nc(-c2ccc(OCC(C)C)c(C#N)c2)sc1C(=O)O | human, plasma | oral, 40 mg once daily, together with: verinurad 5 mg | 6.35 h
COc1ncc(-c2nc3c(n2C(C)C)[C@H](c2ccc(Cl)cc2)N(c2cc(Cl)cn(C)c2=O)C3=O)c(OC)n1 | human, plasma | oral, 120 mg, C1D1, high-dose, median | 12.4 h

For quick reference, copied from above:
Structure (SMILES) | test system | setting | half-life
O=C(O)CCC(=O)O.[2H]C([2H])([2H])Oc1cc(C)c2[nH]ccc2c1CN1CC[C@@H](C2CC2)C[C@H]1c1ccc(C(=O)O)cc1 | human, plasma | 200 mg once daily, day 10, multiple ascending dose, mean | 24.9 h
